Assay results of several laboratories.
Each line is one published result; not all experiments were run side by side. Values joined by “and” are separate records of one study, mostly repeats; a detail may differ. ± marks the error that the study gave.
Kcnh1: Kcnh1 (Mus musculus, UniProt Q60603)
Chain of UniProt Q60603 (whole entry, looked up): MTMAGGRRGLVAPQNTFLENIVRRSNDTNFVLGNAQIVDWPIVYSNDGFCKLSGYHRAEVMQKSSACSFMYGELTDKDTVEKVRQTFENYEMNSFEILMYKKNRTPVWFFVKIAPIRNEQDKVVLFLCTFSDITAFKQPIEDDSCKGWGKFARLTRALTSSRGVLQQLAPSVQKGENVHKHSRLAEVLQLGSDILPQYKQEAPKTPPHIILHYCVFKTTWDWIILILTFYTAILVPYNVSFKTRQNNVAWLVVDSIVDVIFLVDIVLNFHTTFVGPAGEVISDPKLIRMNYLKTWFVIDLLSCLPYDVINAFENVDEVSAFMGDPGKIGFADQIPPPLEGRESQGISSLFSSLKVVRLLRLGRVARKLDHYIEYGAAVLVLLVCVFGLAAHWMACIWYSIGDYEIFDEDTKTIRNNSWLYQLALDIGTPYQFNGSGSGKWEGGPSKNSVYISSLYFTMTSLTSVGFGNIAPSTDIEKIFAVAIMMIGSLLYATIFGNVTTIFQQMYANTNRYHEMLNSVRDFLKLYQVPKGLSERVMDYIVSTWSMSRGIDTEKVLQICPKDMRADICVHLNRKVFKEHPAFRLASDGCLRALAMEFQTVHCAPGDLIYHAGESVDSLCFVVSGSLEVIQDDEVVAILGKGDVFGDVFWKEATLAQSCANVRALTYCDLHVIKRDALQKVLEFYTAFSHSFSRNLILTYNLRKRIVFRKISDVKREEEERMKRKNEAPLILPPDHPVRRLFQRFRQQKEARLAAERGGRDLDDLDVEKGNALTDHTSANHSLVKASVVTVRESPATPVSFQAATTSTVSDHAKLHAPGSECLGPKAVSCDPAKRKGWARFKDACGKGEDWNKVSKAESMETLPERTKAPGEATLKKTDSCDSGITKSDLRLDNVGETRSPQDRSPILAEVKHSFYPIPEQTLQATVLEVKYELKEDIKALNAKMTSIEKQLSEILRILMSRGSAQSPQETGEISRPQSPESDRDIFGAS
Mc1r: Melanocyte-stimulating hormone receptor (Mc1r, Mus musculus, UniProt Q01727)
Chain of UniProt Q01727 (whole entry, looked up): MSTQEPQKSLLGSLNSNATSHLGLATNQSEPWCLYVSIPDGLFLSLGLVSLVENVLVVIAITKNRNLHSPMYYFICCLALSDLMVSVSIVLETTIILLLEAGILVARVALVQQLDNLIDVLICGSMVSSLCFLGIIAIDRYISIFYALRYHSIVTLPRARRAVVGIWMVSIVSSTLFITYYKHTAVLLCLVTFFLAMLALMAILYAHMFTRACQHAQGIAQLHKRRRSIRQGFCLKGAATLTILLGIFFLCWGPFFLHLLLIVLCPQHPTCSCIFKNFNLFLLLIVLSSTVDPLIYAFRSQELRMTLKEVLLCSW
Ptger2: Prostaglandin E2 receptor EP2 subtype (Ptger2, Rattus norvegicus, UniProt Q62928)
Chain of UniProt Q62928 (whole entry, looked up): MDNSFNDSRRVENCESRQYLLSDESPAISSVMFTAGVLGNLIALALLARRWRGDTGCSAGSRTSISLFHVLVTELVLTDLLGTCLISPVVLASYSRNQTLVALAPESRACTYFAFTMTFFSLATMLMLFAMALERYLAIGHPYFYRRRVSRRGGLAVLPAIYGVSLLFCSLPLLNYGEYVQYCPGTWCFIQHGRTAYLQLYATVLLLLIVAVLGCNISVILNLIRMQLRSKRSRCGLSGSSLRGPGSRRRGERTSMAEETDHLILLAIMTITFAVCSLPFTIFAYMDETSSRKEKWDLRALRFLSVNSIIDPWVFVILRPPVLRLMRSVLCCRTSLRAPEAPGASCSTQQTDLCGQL
DRD2: D(2) dopamine receptor (DRD2, Homo sapiens, UniProt P14416)
Chain of UniProt P14416 (whole entry, looked up): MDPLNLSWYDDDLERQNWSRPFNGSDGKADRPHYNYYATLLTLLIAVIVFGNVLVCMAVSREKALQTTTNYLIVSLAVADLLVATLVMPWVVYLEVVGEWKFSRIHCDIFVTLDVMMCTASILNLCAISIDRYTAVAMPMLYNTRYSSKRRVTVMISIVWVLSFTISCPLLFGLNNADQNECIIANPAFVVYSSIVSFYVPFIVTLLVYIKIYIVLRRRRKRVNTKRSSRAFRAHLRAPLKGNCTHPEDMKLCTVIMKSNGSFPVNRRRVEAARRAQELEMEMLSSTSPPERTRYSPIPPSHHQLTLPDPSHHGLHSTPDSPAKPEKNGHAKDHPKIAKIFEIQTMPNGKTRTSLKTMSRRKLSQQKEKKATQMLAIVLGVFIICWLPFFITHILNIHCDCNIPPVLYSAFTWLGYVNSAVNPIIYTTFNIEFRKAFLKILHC
Chain of UniProt P25090 (whole entry, looked up): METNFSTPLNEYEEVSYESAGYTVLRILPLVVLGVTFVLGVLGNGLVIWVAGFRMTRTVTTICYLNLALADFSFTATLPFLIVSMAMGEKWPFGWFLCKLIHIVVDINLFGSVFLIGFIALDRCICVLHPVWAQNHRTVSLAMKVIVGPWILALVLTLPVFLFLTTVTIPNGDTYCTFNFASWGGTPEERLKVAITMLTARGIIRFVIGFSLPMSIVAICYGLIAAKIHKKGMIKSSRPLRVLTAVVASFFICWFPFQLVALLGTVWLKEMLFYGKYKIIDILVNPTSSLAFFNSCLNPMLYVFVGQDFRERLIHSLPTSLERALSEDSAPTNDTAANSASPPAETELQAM
Chain of UniProt Q6DWJ6 (whole entry, looked up): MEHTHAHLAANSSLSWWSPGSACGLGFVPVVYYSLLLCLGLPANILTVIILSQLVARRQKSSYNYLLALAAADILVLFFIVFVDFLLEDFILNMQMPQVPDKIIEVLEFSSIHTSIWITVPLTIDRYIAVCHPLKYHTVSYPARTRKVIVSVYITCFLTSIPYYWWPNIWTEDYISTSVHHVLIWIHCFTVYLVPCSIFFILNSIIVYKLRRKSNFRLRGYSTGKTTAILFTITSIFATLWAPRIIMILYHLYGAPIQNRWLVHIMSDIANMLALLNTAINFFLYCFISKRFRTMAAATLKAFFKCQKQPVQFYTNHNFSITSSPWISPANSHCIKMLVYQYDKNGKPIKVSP
Chain of UniProt P81947 (whole entry, looked up): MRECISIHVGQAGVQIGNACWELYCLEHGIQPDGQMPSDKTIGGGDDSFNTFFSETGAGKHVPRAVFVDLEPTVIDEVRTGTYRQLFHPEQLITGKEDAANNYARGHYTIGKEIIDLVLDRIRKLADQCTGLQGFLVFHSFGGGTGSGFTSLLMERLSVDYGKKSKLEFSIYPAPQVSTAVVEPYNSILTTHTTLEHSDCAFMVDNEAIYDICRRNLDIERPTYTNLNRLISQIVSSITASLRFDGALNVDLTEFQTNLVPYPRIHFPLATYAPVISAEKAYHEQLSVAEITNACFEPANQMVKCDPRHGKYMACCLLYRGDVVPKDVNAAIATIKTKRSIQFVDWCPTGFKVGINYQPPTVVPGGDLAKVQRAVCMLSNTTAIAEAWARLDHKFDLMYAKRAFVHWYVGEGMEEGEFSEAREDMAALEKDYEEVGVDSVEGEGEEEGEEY
Chain of UniProt Q6B856 (whole entry, looked up): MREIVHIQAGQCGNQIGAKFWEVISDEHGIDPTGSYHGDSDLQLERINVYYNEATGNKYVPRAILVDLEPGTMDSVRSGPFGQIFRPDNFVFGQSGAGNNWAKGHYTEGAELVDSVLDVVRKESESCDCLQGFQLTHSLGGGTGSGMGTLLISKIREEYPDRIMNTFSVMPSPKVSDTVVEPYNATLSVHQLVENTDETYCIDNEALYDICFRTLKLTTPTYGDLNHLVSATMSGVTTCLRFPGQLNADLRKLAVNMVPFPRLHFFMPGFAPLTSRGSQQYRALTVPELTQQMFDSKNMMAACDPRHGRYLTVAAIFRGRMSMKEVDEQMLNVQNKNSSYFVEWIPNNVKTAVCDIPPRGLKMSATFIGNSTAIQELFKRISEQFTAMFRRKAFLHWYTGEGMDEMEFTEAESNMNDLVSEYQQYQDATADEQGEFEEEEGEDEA
Chain of UniProt Q64663 (whole entry, unmodified, looked up): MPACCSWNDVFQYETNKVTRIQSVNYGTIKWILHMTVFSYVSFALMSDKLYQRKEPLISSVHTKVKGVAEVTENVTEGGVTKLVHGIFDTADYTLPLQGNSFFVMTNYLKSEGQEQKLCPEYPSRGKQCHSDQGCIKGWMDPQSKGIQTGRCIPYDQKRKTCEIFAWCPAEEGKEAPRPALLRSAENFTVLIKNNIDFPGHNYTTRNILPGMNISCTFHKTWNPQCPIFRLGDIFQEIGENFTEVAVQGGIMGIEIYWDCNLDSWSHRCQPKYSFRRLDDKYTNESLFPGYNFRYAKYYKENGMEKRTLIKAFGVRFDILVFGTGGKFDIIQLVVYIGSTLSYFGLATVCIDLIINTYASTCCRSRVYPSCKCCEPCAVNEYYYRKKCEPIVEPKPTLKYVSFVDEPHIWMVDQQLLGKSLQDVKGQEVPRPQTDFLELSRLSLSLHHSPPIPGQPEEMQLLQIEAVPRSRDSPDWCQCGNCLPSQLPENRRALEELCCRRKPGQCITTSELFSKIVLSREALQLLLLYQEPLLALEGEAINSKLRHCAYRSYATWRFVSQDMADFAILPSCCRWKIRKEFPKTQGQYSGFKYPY
Chain of UniProt P11473 (whole entry, looked up): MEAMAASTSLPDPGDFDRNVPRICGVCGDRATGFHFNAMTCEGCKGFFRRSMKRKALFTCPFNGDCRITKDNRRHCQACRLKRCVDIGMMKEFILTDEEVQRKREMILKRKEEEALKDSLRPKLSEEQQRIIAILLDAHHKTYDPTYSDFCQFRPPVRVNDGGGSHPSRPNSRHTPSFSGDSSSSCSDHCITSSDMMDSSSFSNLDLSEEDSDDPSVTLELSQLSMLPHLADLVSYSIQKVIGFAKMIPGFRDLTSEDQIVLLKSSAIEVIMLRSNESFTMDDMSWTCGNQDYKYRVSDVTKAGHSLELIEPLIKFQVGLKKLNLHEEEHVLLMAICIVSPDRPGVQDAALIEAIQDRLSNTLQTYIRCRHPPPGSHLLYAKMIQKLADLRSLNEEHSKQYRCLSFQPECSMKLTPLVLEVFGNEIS

| Substance | target or system | assay | system | conditions | how to read | quantity | result |
| --- | --- | --- | --- | --- | --- | --- | --- |
| CCC[C@H](C(=O)Nc1ccc(Br)cc1)n1nc(C)cc(Cc2cccc(OC)c2)c1=O | N-formyl peptide receptor 2 (FPR2, Homo sapiens, UniProt P25090) | β-arrestin recruitment, agonist |  |  |  | EC50 | 6800 nM |
| O=c1c(O)c(-c2ccc(O)c(O)c2)oc2cc(O)ccc12 | Kcnh1 | deactivation time constant, inside-out patch clamp | Xenopus oocytes |  |  | EC50 | 6600 ± 3700 nM |
| CSCC[C@H](NC(=O)[C@H](C)NC(=O)[C@H](Cc1ccc(O)cc1)NC(=O)[C@H](CO)NC(C)=O)C(=O)N[C@@H](CCC(=O)O)C(=O)N[C@@H](Cc1c[nH]cn1)C(=O)N[C@@H](Cc1ccccc1)C(=O)N[C@@H](CCCNC(=N)N)C(=O)N[C@@H](Cc1c[nH]c2ccccc12)C(=O)NCC(=O)N[C@@H](CCCCN)C(=O)N1CCC[C@H]1C(=O)N[C@H](C(N)=O)C(C)C | Mc1r |  |  |  |  | EC50 | 800 ± 130 nM |
| CC[C@]1(O)C[C@@H]2CN(CCc3c([nH]c4ccccc34)[C@@](C(=O)OC)(c3cc4c(cc3OC)N(C)[C@H]3[C@@](O)(C(=O)OC)[C@H](OC(C)=O)[C@]5(CC)C=CCN6CC[C@]43[C@@H]65)C2)C1 |  | mitochondrial swelling | BALB/cByJ female mouse liver mitochondria | 30 min, with: succinate + rotenone | baseline: CaCl2 maximal swelling | EC20 | 186000 nM |
| CCCCC[C@H](O)/C=C/[C@H]1CC(F)(F)C(=O)N1CCCCCCC(=O)O | Ptger2 | reporter gene, agonist |  |  |  | EC50 | 851 nM |
| CCc1nc2cc(OCCCCN3CCN(c4cccc5ccc(C)nc45)CC3)ccc2s1 | DRD2 | cAMP, agonist, luciferase |  |  |  | EC50 | 62 nM |
| CCCCCC(O)C=CC1CCC(=O)N1CCCCCCC(=O)O (centres unmarked) | Ptger2 | cAMP, agonist |  |  |  | EC50 | > 10000 nM |
| Cc1nc2cc(OCCCCN3CCN(c4cccc5c4OCCO5)CC3)ccc2s1 | DRD2 | cAMP, agonist, luciferase |  |  |  | EC50 | 0.64 nM |
| Cc1nc(-c2ccc(OCC(C)C)c(C#N)c2)sc1C(=O)NC1CCOCC1 | Metabotropic glutamate receptor 2 (Grm2, Rattus norvegicus, UniProt P31421) | positive allosteric modulator, thallium flux | HEK293 GIRK | with: EC20 glutamate |  | EC50 | 4800 nM |
| CCCCC1C(=O)N(c2ccccc2)N(c2ccccc2)C1=O |  | mitochondrial swelling | BALB/cByJ female mouse liver mitochondria | 30 min, with: succinate + rotenone | baseline: CaCl2 maximal swelling | EC20 | > 400000 nM |
| BzATP | P2X purinoceptor 7 (P2rx7, Rattus norvegicus, UniProt Q64663) | ion current, agonist, two-electrode voltage clamp | Xenopus laevis oocytes |  |  | EC50 | 1200 ± 200 nM |
| CSCC[C@H](NC(=O)[C@H](CO)NC(=O)[C@H](Cc1ccc(O)cc1)NC(=O)[C@H](CO)NC(C)=O)C(=O)N[C@@H](CCC(=O)O)C(=O)N[C@@H](Cc1c[nH]cn1)C(=O)N[C@@H](Cc1ccccc1)C(=O)N[C@@H](CCCNC(=N)N)C(=O)N[C@@H](Cc1c[nH]c2ccccc12)C(=O)NCC(=O)N[C@@H](CCCCN)C(=O)N1CCC[C@H]1C(=O)N[C@@H](C)C(N)=O | Mc1r |  |  |  |  | EC50 | 47 ± 58 nM |
| Cc1nc2cc(OCCCCN3CCN(c4cccc5[nH]c(=O)oc45)CC3)ccc2s1 | DRD2 | cAMP, agonist, luciferase |  |  |  | EC50 | 0.27 nM |
| CCC1=C(O)c2c(oc(-c3ccc(O)c4ccccc34)cc2=O)C(CC)(CC)C1=O | Tubulin alpha-1B chain/TUBB2B (Bos taurus, UniProt P81947+Q6B856) |  |  |  |  | EC50 | 3400 nM |
| CSCC[C@H](NC(=O)[C@H](CO)NC(=O)[C@H](Cc1ccc(O)cc1)NC(=O)[C@H](CO)NC(C)=O)C(=O)N[C@@H](CCC(=O)O)C(=O)N[C@@H](Cc1c[nH]cn1)C(=O)N[C@@H](C)C(=O)N[C@@H](CCCNC(=N)N)C(=O)N[C@@H](Cc1c[nH]c2ccccc12)C(=O)NCC(=O)N[C@@H](CCCCN)C(=O)N1CCC[C@H]1C(=O)N[C@H](C(N)=O)C(C)C | Mc1r |  |  |  |  | EC50 | 6400 ± 2220 nM |
| N=C(NCCCCCCCCCCNC(N)=O)NCCCc1c[nH]cn1 | Histamine H4 receptor (HRH4, Homo sapiens, UniProt Q9H3N8) | GTPγS binding, agonist |  | cell membranes |  | EC50 | 36300 nM |
| C=C1/C(=C\C=C2/CCC[C@]3(C)[C@@H]([C@H](C)CC(=O)O)CC[C@@H]23)C[C@@H](O)C[C@@H]1O | Vitamin D3 receptor (VDR, Homo sapiens, UniProt P11473) | reporter gene, agonist, luciferase |  |  |  | EC50 | 2890 nM |
| Cc1ccc2cccc(N3CCN(CCCCOc4ccc5sc(C(C)C)nc5c4)CC3)c2n1 | DRD2 | cAMP, agonist, luciferase |  |  |  | EC50 | 8.3 nM and < 10 nM |
| 6-bromoindirubin-3-oxime | PGC-1α/ERRα (human) | reporter gene, agonist, luciferase reporter |  |  |  | EC50 | 1190 nM |
| CCCC[C@H](NC(=O)[C@H](CO)NC(=O)[C@H](Cc1ccc(O)cc1)NC(=O)[C@H](CO)NC(C)=O)C(=O)N[C@@H](C)C(=O)N[C@@H](Cc1c[nH]cn1)C(=O)N[C@H](Cc1ccccc1)C(=O)N[C@@H](CCCNC(=N)N)C(=O)N[C@@H](Cc1c[nH]c2ccccc12)C(=O)NCC(=O)N[C@@H](CCCCN)C(=O)N1CCC[C@H]1C(=O)N[C@H](C(N)=O)C(C)C | Mc1r |  |  |  |  | EC50 | 0.053 ± 0.011 nM |
| CCCCCCCC(=O)OC[C@H](COP(=O)(O)O[C@H]1[C@H](O)[C@@H](O)[C@H](OP(=O)(O)O)[C@@H](O)[C@H]1O)OC(=O)CCCCCCC | Transient receptor potential cation channel subfamily V member 1 (Trpv1, Rattus norvegicus, UniProt O35433, R721A) | agonist, inside-out patch clamp | plasma membrane inner leaflet |  |  | EC50 | ~0.007 mol % |
| Nc1nc(F)nc2c1ncn2[C@@H]1O[C@H](COP(=O)(O)OP(=O)(O)OP(=O)(O)O)[C@@H](O)[C@@H]1O | Ribonucleoside-diphosphate reductase large subunit (Homo sapiens, UniProt P23921) |  |  |  |  | EC50 | 4600 ± 800 nM |
| O=c1cc(-c2ccc(O)c(O)c2)oc2cc(O)cc(O)c12 | Kcnh1 | deactivation time constant, inside-out patch clamp | Xenopus oocytes |  |  | EC50 | 8700 ± 800 nM |
| CCCC[C@H](NC(=O)[C@H](CO)NC(=O)[C@H](Cc1ccc(O)cc1)NC(=O)[C@H](CO)NC(C)=O)C(=O)N[C@@H](CCC(=O)O)C(=O)N[C@@H](C)C(=O)N[C@H](Cc1ccccc1)C(=O)N[C@@H](CCCNC(=N)N)C(=O)N[C@@H](Cc1c[nH]c2ccccc12)C(=O)NCC(=O)N[C@@H](CCCCN)C(=O)N1CCC[C@H]1C(=O)N[C@H](C(N)=O)C(C)C | Mc1r |  |  |  |  | EC50 | 0.025 ± 0.001 nM |
| CSCC[C@H](NC(=O)[C@H](CCCN=C(N)N)NC(=O)[C@H](Cc1ccc(O)cc1)NC(=O)[C@@H]1CCCN1C(=O)CNC(=O)[C@H](CCC(=O)O)NC(=O)[C@H](CC(=O)O)NC(=O)[C@H](CCCCN)NC(=O)[C@H](CCCCN)NC(=O)[C@H](CCC(=O)O)NC(=O)[C@H](C)N)C(=O)N[C@@H](CCC(=O)O)C(=O)N[C@@H](Cc1c[nH]cn1)C(=O)N[C@@H](Cc1ccccc1)C(=O)N[C@@H](CCCN=C(N)N)C(=O)N[C@@H](Cc1c[nH]c2ccccc12)C(=O)NCC(=O)N[C@@H](CO)C(=O)N1CCC[C@H]1C(=O)N1CCC[C@H]1C(=O)N[C@@H](CCCCN)C(=O)N[C@@H](CC(=O)O)C(=O)O | Probable G-protein coupled receptor 139 (GPR139, Homo sapiens, UniProt Q6DWJ6) | calcium signal, agonist, fluorescence |  |  |  | EC50 | 6300 nM |
| CCCCC1CN2C(=N1)C(N)=Nc1ccccc12 (centres unmarked) | Toll-like receptor 8 (TLR8, Homo sapiens, UniProt Q9NR97) | reporter gene, agonist |  |  |  | EC50 | 3050 nM |
